Published values collected from several papers.
Lines come from different studies, so protocols differ.

For `Cc1n[nH]c2ccc(-c3cc(OC[C@@H](N)Cc4ccccc4)cnc3-c3ccoc3)cc12`, “log2 fold change” read 0.0443 (kinase binding, competitor, MIB/MS competition, refers to: FPK1; Candida albicans cell lysate; 100 nM; baseline: DMSO).
With `O=C(O)CNC(=O)Cc1ccccc1` the sarcomere length was 1.72 µm (ventricular cardiomyocytes, C57BL/6 mouse; dose not given, 0.704 s).
For `N#Cc1ccc2c(-c3ccncc3)c(-c3ccc(F)cc3)nn2c1`, “log2 fold change” read -0.223 (kinase binding, competitor, MIB/MS competition, refers to: CTK1; Candida albicans cell lysate; 10 µM; baseline: DMSO).
`N#CCC1CCN(c2nc(Nc3ccc(N4CCC(O)CC4)cc3)c3c(=O)[nH]ncc3n2)CC1` — result for “fold change from baseline”: -1.39 (Olink multiplex, refers to: CDCP1; human, serum; 80 mg, day 29; baseline: baseline).
`N#Cc1ccn2c(-c3ccncc3)c(-c3ccc(F)cc3)nc2c1`: “log2 fold change” -0.109 (kinase binding, competitor, MIB/MS competition, refers to: SCH9; Candida albicans cell lysate; 1 µM; baseline: DMSO).
For `CC(C)NCC(O)c1ccc(O)c(O)c1` (stereo not drawn), the sarcomere length was 1.72 µm (ventricular cardiomyocytes, C57BL/6 mouse; dose not given, 0.44 s).
Under “EEG Alpha1-power Fz-Cz”, `OC(CCN1CCCCC1)(c1ccccc1)C1CC2C=CC1C2` (stereo not drawn) is recorded as 2.6 µV² (resting-state EEG; healthy elderly humans; oral, 2 mg, eyes open, LS mean).
`NC(=O)c1cnc2[nH]ccc2c1N[C@@H]1[C@@H]2CC3C[C@H]1C[C@@](O)(C3)C2` — result for “CD4+ effector T-cell change”: 0.1% (flow cytometry; Japanese healthy men, blood; oral, 10 mg twice daily, 72 h after day 7 dose; baseline: baseline).
Under “difference from placebo”, `C[C@H](Oc1ccc(Br)cc1-c1ccon1)C(=O)O` is recorded as 3.84% (muscle velocity recovery cycle; human, tibialis anterior muscle; 400 mg once daily, last response peak at 15 Hz, multiple ascending dose).

A few entries again:
Under “difference from placebo”, `C[C@H](Oc1ccc(Br)cc1-c1ccon1)C(=O)O` is recorded as 3.84% (muscle velocity recovery cycle; human, tibialis anterior muscle; 400 mg once daily, last response peak at 15 Hz, multiple ascending dose).
